{"data": "Measured values gathered from unrelated publications", "note": "± gives the spread as reported."}
{"SMILES": "Cn1ncc(-c2ccc3c(=O)[nH]nc(CN)c3c2)c1-c1c(F)c(Cl)cc(OC2CC2)c1C#N", "cell line": "HuT78", "effect on": "cell viability", "action": "inhibitor", "technique": "CellTiter-Glo", "time": "120 h", "setting": "baseline-subtracted", "IC50": "80 nM"}
{"SMILES": "COc1ccc(CC[C@H]2OC(=O)[C@@H]3CCCCN3C(=O)C(=O)C(C)(C)COC(=O)C=CCCN(C)C(=O)[C@H](CC(C)C)N(C)C(=O)[C@H]3CCCN3C(=O)[C@H](Cc3ccccc3)N(C)C(=O)[C@H](Cc3ccccc3)NC(=O)CCC(=O)Nc3cccc2c3)cc1OC", "cell line": "HUVEC", "effect on": "thymidine uptake", "action": "inhibitor", "IC50": "377 ± 43 nM"}
{"SMILES": "CC(C)c1ccc(N(C)c2ccc3c(c2)OCC[C@H]3CNc2cnccc2C(=O)O)cc1", "cell line": "MKN-1", "effect on": "cell growth or viability", "technique": "ATP luminescence", "time": "7 days", "IC50": "5.75 nM"}
{"SMILES": "CNS(=O)(=O)Nc1nccc(Cc2c(C)c3ccc(Oc4ncccc4F)cc3oc2=O)c1F", "cell line": "CoCM-1", "effect on": "cell viability", "time": "7 days", "IC50": "2.8 nM"}
{"SMILES": "CCOc1cncc(-c2ccc(NC(=O)C3(c4ccnc(NS(=O)(=O)C5CC5)n4)CCOCC3)nc2)n1", "cell line": "EM-2", "effect on": "cell proliferation", "technique": "CellTiter-Glo", "time": "72 h", "IC50": "48 nM"}
{"SMILES": "CC(C)CCC[C@@H](C)[C@H]1CC[C@H]2[C@@H]3CC=C4C[C@@H](OC(=O)NCCCN(C)CCC[n+]5c6cc(N(C)C)ccc6cc6ccc(N(C)C)cc65)CC[C@]4(C)[C@H]3CC[C@]12C", "cell line": "ARPE-19", "effect on": "cytotoxicity", "technique": "CCK-8", "time": "48 h", "IC50": "> 100000 nM"}
{"SMILES": "COc1ccc(CC[C@H]2OC(=O)[C@@H]3CCCCN3C(=O)C(=O)C(C)(C)COC(=O)C=CCCN(C)C(=O)[C@H](Cc3ccccc3)NC(=O)[C@@H](Cc3ccccc3)N(C)C(=O)[C@H]3CCCN3C(=O)[C@H](CC(C)C)N(C)C(=O)CCC(=O)Nc3cccc2c3)cc1OC", "cell line": "HUVEC", "effect on": "thymidine uptake", "action": "inhibitor", "IC50": "> 20000 nM"}
{"SMILES": "NC(=O)c1ccc(-c2ccccc2Cl)c2c3c([nH]c12)CC[C@@H](N)C3", "cell line": "HGC-27", "effect on": "cell growth or viability", "IC50": "19.9 nM"}
{"SMILES": "CC[C@H](C)[C@H](NC(=O)[C@H](CCCCN)NC(=O)[C@H](Cc1ccccc1)NC(=O)[C@H]1CCC[C@@H]1NC(=O)CN)C(=O)N[C@H](CC(=O)N[C@@H](CCCCN)C(=O)N[C@@H](CCCCN)C(=O)N[C@H]1CCC[C@@H]1C(=O)N[C@@H](C)C(=O)N[C@@H](CCCCN)C(=O)N[C@@H](CO)C(=O)N[C@H](CC(N)=O)Cc1ccccc1)[C@@H](C)CC", "cell line": "HUVEC", "effect on": "cytotoxicity", "IC50": "94.8 µg/mL"}
{"note": "A few entries again:"}
{"SMILES": "CC(C)c1ccc(N(C)c2ccc3c(c2)OCC[C@H]3CNc2cnccc2C(=O)O)cc1", "cell line": "MKN-1", "effect on": "cell growth or viability", "technique": "ATP luminescence", "time": "7 days", "IC50": "5.75 nM"}
